Published values collected from several papers.
Lines come from different studies, so protocols differ. “And” joins repeats or separate records; there may be more than shown. Numbers after ± are the reported error.

| SMILES | target | assay | system | conditions | scale | endpoint | value |
| --- | --- | --- | --- | --- | --- | --- | --- |
| CNc1cc(Oc2cc(C(=O)Nc3cc(N4CCN(C)CC4)cc(C(F)(F)F)c3)ccc2C)ncn1 | MAP3K2/MAP3K3 (human) | kinase probe binding, inhibitor, KiNativ | Huh-7 | 1 µM | – | inhibition | -42.2% |
| O=C(O)CCCOc1cccc(CNC(=O)C#Cc2cn(Cc3ccc(C(=O)O)cc3)c(=O)[nH]c2=O)c1 | MMP-2 | inhibitor, FRET | – | 10 µM | – | remaining MMP-2 activity | 96 ± 2% |
| CCN(CC)CCNC(=O)c1ccc(-c2noc(C(F)(F)F)n2)cc1 | HDAC | enzyme activity, inhibitor | CAL-27 | 18 h, added: Boc-Lys(ε-Ac)-AMC substrate | – | IC50 | 3980 ± 1100 nM |
| CC(=O)NCCCC[C@H](NC(=O)CNC(=O)[C@H](CCCNC(=N)N)NC(C)=O)C(=O)Nc1ccc2c(C)cc(=O)oc2c1 | human Y386F/Y782F mutant enzyme | substrate, fluorogenic | – | – | – | kcat | 0.0004 ± 0.0002 s⁻¹ |
| c1coc(-c2n[nH]cc2-c2ccnc3ccccc23)c1 | BCK1 (Candida albicans) | kinase binding, MIB/MS competition | Candida albicans lysate | 10 µM | reference: DMSO | log2 fold change | -0.17 |
| CC(=O)ON=C1C=CC(=C(C#N)c2ccccc2)C=C1 | Leishmania donovani TLK | enzyme activity, inhibitor, ADP-Glo | – | 20 µM, about MIC, added: ATP 10 µM | – | remaining activity | 110% |
| CC(C)C[C@H](NC(=O)[C@@H](CCCCNC(=O)CCCCCN1C(=CC=CC=CC2=[N+](C)c3ccc(S(=O)(=O)O)cc3C2(C)C)C(C)(C)c2cc(S(=O)(=O)[O-])ccc21)NC(=O)[C@H](Cc1ccc(O)cc1)NC(=O)[C@H](CO)NC(=O)[C@H](Cc1c[nH]c2ccccc12)NC(=O)[C@H](Cc1c[nH]cn1)NC(=O)[C@@H]1CCC(=O)N1)C(=O)N[C@@H](CCCNC(=N)N)C(=O)N1CCC[C@H]1C(=O)NCC(N)=O | GnRH receptor (rat) | agonist, Western blot | – | 10 nM, 60 min | reference: basal | ERK1/2 phosphorylation | 3.2 ± 0.89 fold |
| CSCC[C@@H]1NC(=O)[C@H](C)NC(=O)[C@H](CCC(N)=O)NC(=O)[C@H](CCCNC(=N)N)NC(=O)[C@H](Cc2c[nH]c3ccccc23)NC(=O)CNC(=O)[C@H](CCSC)NC(=O)[C@@H]2CCCN2C(=O)[C@H](C)NC(=O)[C@@H](NC(=O)CN)CSSC[C@@H]2NC(=O)CNC(=O)[C@H](C)NC(=O)[C@H](CC(C)C)NC(=O)[C@@H]3CSSC[C@@H](C(=O)NCC(=O)O)NC(=O)[C@H](Cc4ccccc4)NC(=O)CNC(=O)[C@H](CC(N)=O)NC(=O)[C@@H]4CCCN4C(=O)CNC(=O)[C@H](CSSC[C@H](NC(=O)[C@H](CCCNC(=N)N)NC1=O)C(=O)N[C@@H](CCCCN)C(=O)N[C@@H](CCC(N)=O)C(=O)N[C@@H](CC(=O)O)C(=O)N[C@@H](CO)C(=O)N[C@@H](CC(=O)O)C(=O)N3)NC(=O)[C@H](C(C)C)NC2=O | classical complement pathway | inhibitor, ELISA, item: C5b-9 | 1% normal human serum | 1 h, 37 °C, IgM-coated plate, partial inhibition | – | IC50 | 1080 nM |
| COc1c(O)cc2oc3cc(O)c(CC=C(C)C)c(O)c3c(=O)c2c1CC=C(C)C | MyBP-C and MYH | – | iPSC-derived cardiomyocytes (human) | concentration not given | reference: plate controls (SD units) | MyBP-C/MYH ratio | 8.5 |
| COc1ccc(F)cc1C(=O)NCc1ccc(-c2nn([C@@H](C)C(F)(F)F)c(N)c2C(N)=O)cc1 | MEK1/MEK2 human | probe binding, competitive chemoproteomics | human PBMCs | 1 µM | – | inhibition | 11.4% |
| O=C(Nc1cc(OCCN2CCCC2)c2ccccc2n1)c1cc(OCc2ccc(F)cc2)cc(C(=O)Nc2cc(OCCN3CCCC3)c3ccccc3n2)n1 | K-ras G-quadruplex DNA | FRET melting | – | 1 µM, pH 7.4, added: 60 mM potassium | – | ΔTm | 3.2 ± 0.4 K |
| COc1ccc([C@H]2OC[C@H](Cc3ccc(C(C)(C)C)cc3)[C@@H]2CO)cc1OC | NF-κB | reporter gene | HEK293/NF-κB-luc | 4 h, added: TNFα 2 ng/mL | – | IC50 | ≥ 20000 nM |
| C#Cc1cc(-c2cc(Nc3nc(N[C@@H](C)c4ccc(F)cn4)ncc3Cl)n[nH]2)ccc1C=O | SRM kinase fusion, human | kinase activity, inhibitor | – | 0.2 µM | – | inhibition | 35% and 33.2% |
| CN(C)CCCOc1cc(NC(=O)c2cc(Cl)cc(C(=O)Nc3cc(OCCCN(C)C)c4ccccc4n3)n2)nc2ccccc12 | K-ras G-quadruplex DNA | FRET melting | – | 1 µM, pH 7.4, added: 60 mM potassium | – | ΔTm | 18.3 ± 0.4 K |
| CNC(=O)c1cc(Oc2ccc(NC(=O)Nc3ccc(Cl)c(C(F)(F)F)c3)cc2)ccn1 | JNK1α1 (human) | kinase activity, inhibitor | – | 10 µM | – | inhibition | 7% |
| CCCN(CCCCOCCOCCOCCOCC(=O)N[C@H](C(=O)N1C[C@H](O)C[C@H]1C(=O)NCc1ccc(-c2scnc2C)cc1)C(C)(C)C)C[C@@H](C)NC(=O)c1ccc(-c2noc(C(F)(F)F)n2)cc1 | class I HDAC (human) | inhibitor | Jurkat | – | – | IC50 | 2100 nM |
| CC[C@@H]1[C@H](F)C(=O)N[C@@H]1COc1nccc2cc(C(N)=O)c(OC)cc12 | CK1 delta and epsilon | ATP-site probe binding, inhibitor, ActivX ATP probe profiling | THP-1 cell lysate | 0.04 mM, probe site Lys2 | – | inhibition | 20.3% |
| CC(C)N=C(N)c1ccc2nc(-c3ccc(OCc4cccc(COc5ccc(-c6nc7ccc(C(N)=NC(C)C)cc7[nH]6)cc5)c4F)cc3)[nH]c2c1 | PU.1 (mouse) | reporter gene, inhibitor, luciferase reporter | BV-2 cells PU.1-luciferase | concentration not given | reference: DMSO | inhibition | 11.8 ± 22.3% |
| COc1cnc(Nc2cccc(S(N)(=O)=O)c2)nc1N1CCN(c2ccccc2)CC1 | human FLT3 ITD | binding, KINOMEscan | – | 1000 nM | lower = stronger binding | percent of control | 78% |
| CN(C)CCCOc1cc(NC(=O)c2cccc(C(=O)Nc3cc(OCCCN(C)C)c4ccccc4n3)n2)nc2ccccc12 | K-ras G-quadruplex DNA | FRET melting | – | 1 µM, pH 7.4, added: 60 mM potassium | – | ΔTm | 16.7 ± 0.4 K |
| Cc1ncsc1-c1ccc([C@H](C)NC(=O)[C@@H]2C[C@@H](O)CN2C(=O)[C@@H](NC(=O)COCCOCCOCCOCCOCC(=O)N2CC(Nc3cc(C(=O)NC[C@H](O)CN4CCc5ccccc5C4)ncn3)C2)C(C)(C)C)cc1 | human MEP50 | degrader, Western blot | MDA-MB-468 | 72 h | – | Dmax | ~50% |
| COc1cc(-c2cc(-c3ccc(N4CCNCC4)cc3)cnc2N)cc(OC)c1OC | human CK2 | enzyme activity, inhibitor | – | 0.1 µM | – | inhibition | 8% |
| NCCCOc1cc(NC(=O)c2cc(OCCN)cc(C(=O)Nc3cc(OCCCN)c4ccccc4n3)n2)nc2ccccc12 | K-ras G-quadruplex DNA | FRET melting | – | 1 µM, pH 7.4, added: 60 mM potassium | – | ΔTm | 29.9 ± 0.9 K |
| Cc1ccc(C(=O)Nc2ccc3ccccc3c2)o1 | Kv2.1 potassium channel | ion current, inhibitor, whole-cell patch clamp | – | 10 µM | – | inhibition | 14.1% and 25% and 23.7% and 17.3% and 19.8% |
| NCCCOc1cc(NC(=O)c2cc(OCc3c[nH]nn3)cc(C(=O)Nc3cc(OCCCN)c4ccccc4n3)n2)nc2ccccc12 | K-ras G-quadruplex DNA | FRET melting | – | 1 µM, pH 7.4, added: 60 mM potassium | – | ΔTm | 5.9 ± 0.5 K |
| O=C(NCC1CCOCC1)c1n[nH]cc1NC(=O)c1c(F)cccc1F | human FLT3 ITD | scanMAX | – | 1 µM | reference: control | remaining binding | 83% |
| Nc1cc(COc2c(Cl)cc(C[C@H](N)C(=O)O)cc2Cl)c2oc(-c3ccccc3)nc2c1 | B0AT1, LAT1, ASCT2 | radiolabelled uptake | CHO-BC cells | 3 µM, with Na+, added: L-[14C]leucine, GPNA 3 mM | – | L-leucine uptake | 59.9 nmol/6 min/mg protein and 63 nmol/6 min/mg protein and 56.8 nmol/6 min/mg protein |
| NCCOc1cc(NC(=O)c2cc(OCc3c[nH]nn3)cc(C(=O)Nc3cc(OCCN)c4ccccc4n3)n2)nc2ccccc12 | K-ras G-quadruplex DNA | FRET melting | – | 1 µM, pH 7.4, added: 60 mM potassium | – | ΔTm | 5.8 ± 0.5 K |
| Oc1ccccc1-c1n[nH]cc1-c1ccnc2ccccc12 | FPK1 (Candida albicans) | kinase binding, MIB/MS competition | Candida albicans lysate | 1 µM | reference: DMSO | log2 fold change | 0.07 |
| Nc1ccc2cc(C(=O)NS(=O)(=O)c3ccccc3-c3ccccc3)oc2c1 | oestrogen receptor alpha (human) | reporter gene | MCF7-MVLN, ER reporter gene | concentration not given | – | activity class | inactive |
